Measurements of several laboratories.
Each line is one published result; not all experiments were run side by side. Values joined by “and” are separate records of one study, mostly repeats; a detail may differ. ± marks the error that the study gave.

SMILES	test	system	conditions	how to read	Cmax
C[C@@H](Oc1cc(-c2cnn(C3CCNCC3)c2)cnc1N)c1c(Cl)ccc(F)c1Cl		human patients, plasma	oral, dose not given, cycle 2 day 1, mean, together with: avelumab		331 ng/mL
CC(=O)c1cc(C(=O)N[C@@H](C)Cn2ccc(-c3ccc(C#N)c(Cl)c3)n2)[nH]n1		human, fasted, plasma	oral, 300 mg darolutamide tablet, geometric mean		1260 ng/mL
COc1cc(Nc2c(C#N)cnc3cc(OCCCN4CCN(C)CC4)c(OC)cc23)c(Cl)cc1Cl		human, normal hepatic function (NCI), plasma	single dose, geometric mean, total drug		41.3 ng/mL
NC[C@@]1(CC(=O)O)[C@@H]2CC[C@H]3C[C@@H]2[C@@H]1C3		human, moderately renal impairment, plasma	geometric least squares mean		410 ng/mL
C[C@H](CCC(=O)NCC(=O)O)[C@H]1CC[C@H]2[C@@H]3[C@H](O)C[C@@H]4C[C@H](O)CC[C@]4(C)[C@H]3C[C@H](O)[C@]12C		human, plasma	oral, dose not given	baseline: untreated	227 ± 30 nM
NC1(C(=O)N[C@@H](CCO)c2ccc(Cl)cc2)CCN(c2nc[nH]c3nccc2-3)CC1		human, plasma	concentration not given		349 ng/mL and 488 ng/mL and 872 ng/mL
CC(C)NC(=O)COc1cccc(-c2nc(Nc3ccc4[nH]ncc4c3)c3ccccc3n2)c1		human, male, fed, plasma	oral, 200 mg once daily, day 8, geometric mean, together with: raltegravir		2760 ng/mL
CCN(CC)CCNC(=O)c1c(C)[nH]c(/C=C2\C(=O)Nc3ccc(F)cc32)c1C		human, mild hepatic impairment (NCI), plasma	single dose, geometric mean, total drug		24.6 ng/mL
COc1ccc2nc([S@@+]([O-])Cc3ncc(CO)c(OC)c3C)[nH]c2c1		human, dried plasma spots	5 mg racemic omeprazole, together with: rifampicin pretreatment		2.7 nM
CN(C)C(=O)c1cc2cnc(Nc3ccc(N4CCNCC4)cn3)nc2n1C1CCCC1		human, severe renal impairment, plasma	oral, 400 mg, single dose, adjusted geometric mean		538 ng/mL
NS(=O)(=O)OC[C@@H]1C[C@@H](n2ccc3c(N[C@H]4CCc5ccccc54)ncnc32)C[C@@H]1O	LC-MS/MS, non-compartmental	human, plasma	intravenous, all dose levels, cycle 1 day 8, median, together with: irinotecan/temozolomide		279 ng/mL
Cc1ncc(CO)c(C(=O)O)c1O		human males, Japanese, plasma	concentration not given, endogenous baseline level		2.9 ± 1 ng/mL
COc1cc2ncnc(Nc3ccc(F)c(Cl)c3)c2cc1NC(=O)/C=C/CN1CCCCC1		human, normal hepatic function (Child-Pugh), plasma	single dose, geometric mean, total drug		12.7 ng/mL
C#C[C@]1(CO)O[C@@H](n2cnc3c(N)nc(F)nc32)C[C@@H]1O		human, plasma	oral, 5 mg, geometric mean		147 nM
CNC(=O)c1cc(Oc2ccc(NC(=O)Nc3ccc(Cl)c(C(F)(F)F)c3)cc2)ccn1		human, plasma	oral, 200 mg daily, median, dose level -4, together with: carboplatin AUC 2, gemcitabine 500 mg/m2		2800 ng/mL
Cn1cncc1[C@@](N)(c1ccc(Cl)cc1)c1ccc2c(c1)c(-c1cccc(Cl)c1)cc(=O)n2C		human patients	oral, 200 mg/m2, first dose, cycle 1, median		853 ng/mL
CC1=C(c2cccc(O)c2)[C@H](c2ccc(OCCN3CC(CF)C3)cc2)Oc2ccc(O)cc21		human, plasma	oral, 1000 mg once daily, steady state geometric mean		158 ng/mL
Cn1ncnc1[C@H]1c2n[nH]c(=O)c3cc(F)cc(c23)N[C@@H]1c1ccc(F)cc1		human patients, plasma	oral, 600 µg/m2 twice daily, day 1, monotherapy, dose level DL4, median		6.2 ng/mL

SMILES	test	system	conditions	how to read	Cmax
CCc1nc(C(N)=O)c(Nc2ccc(N3CCC(N4CCN(C)CC4)CC3)c(OC)c2)nc1NC1CCOCC1		human patients	oral, 450 mg once daily, cycle 1 day 15		1530 ng/mL
Cn1nnc2c(C(N)=O)ncn2c1=O		human patients, plasma	oral, 55 mg/m2, day 5, dose level DL6, median, together with: talazoparib 600 µg/m2		3560 ng/mL
Cc1cc(C)c(CNC(=O)c2cc(Cl)c3c(c2C)O[C@@](C)([C@H]2CC[C@H](N(C)C)CC2)O3)c(=O)[nH]1		human, NHL patients, plasma	oral, 200 mg/day, cycle 1 day 1, once daily		1930 ng/mL
C#Cc1cccc(Nc2ncnc3cc(OCCOC)c(OCCOC)cc23)c1		human, plasma	oral, 100 mg daily, day 8, together with: docetaxel		2780 ± 1220 nM
COc1nnc2ccc(N3CCC(c4ccc(OCCN5CCN(C)C(=O)[C@H]5C)cc4)CC3)nn12		human, plasma	oral, 40 mg once daily, multiple dose, monotherapy		216 nM
COc1ncnn2ccc(-c3cnc4nc(C)n(Cc5nnc([C@@H](C)F)o5)c4c3)c12	LC-MS/MS	human, plasma	oral, 105 mg capsule		1050 ng/mL
CC(C)(C)[C@@H]1NC(=O)O[C@@H]2CCC[C@H]2OC/C=C/C(F)(F)c2nc3ccccc3nc2O[C@@H]2C[C@@H](C(=O)N[C@]3(C(=O)NS(=O)(=O)C4(C)CC4)C[C@H]3C(F)F)N(C2)C1=O		healthy human subjects, plasma	oral, dose not given, together with: carbamazepine twice daily		354 ng/mL
Fc1ccc([C@@H]2CCNC[C@H]2COc2ccc3c(c2)OCO3)cc1		human, CYP2D6 poor metabolizers	oral, 20 mg, steady state, geometric mean		49 ng/mL
N#CCC1CCN(c2nc(Nc3ccc(N4CCC(O)CC4)cc3)c3c(=O)[nH]ncc3n2)CC1		human, plasma	oral, 20 mg once daily, day 15		82.9 ng/mL
CC(C)n1nc(-c2ccc3oc(N)nc3c2)c2c(N)ncnc21		human, plasma	oral, 2 mg once daily, cycle 1 day 1		23.9 ng/mL
Cc1ccc([C@@H]2O[C@H](CO)[C@@H](O)[C@H](O)[C@H]2O)cc1Cc1ccc(-c2ccc(F)cc2)s1		human, maintenance hemodialysis patients	oral, 100 mg once daily, steady state, mean		911 ng/mL
C[C@H](Oc1ccc(Br)cc1-c1ccon1)C(=O)O	LC-MS/MS, non-compartmental	human, plasma	200 mg once daily, day 1, multiple ascending dose, mean		9640 ng/mL
NC(CO)(CO)CCc1ccc(Sc2cccc(OCc3ccccc3)c2)cc1Cl		human male fasted, whole blood	oral, 3 mg, given alone		0.768 ng/mL
Cn1c(=O)oc2ccc(-c3ccc(C[C@@H](C#N)NC(=O)[C@@H]4CNCCCO4)cc3)cc21		human, moderate renal impairment, plasma	oral, 25 mg single dose, geometric least squares mean		183 ng/mL
NC1(C(=O)N[C@@H](CCO)c2ccc(Cl)cc2)CCN(c2ncnc3[nH]ccc23)CC1		human, plasma	800 mg twice daily, day 2, 2 days on, 5 days off		3860 ng/mL
COc1cc([C@@H]2Oc3ccc([C@H]4Oc5cc(O)cc(O)c5C(=O)[C@@H]4O)cc3O[C@H]2CO)ccc1O		OATP1B1/1B3 humanized mice, plasma	oral gavage, 500 mg/kg silymarin		440 nM
C=CC(=O)N(C)CCOc1c(N)ncnc1-c1cc(F)cc(NC(=O)c2ccc(C3CC3)cc2F)c1C		human, whole blood	oral, 200 mg, single ascending dose, fasted		245 ng/mL

Some of these lines once more:
SMILES	test	system	conditions	how to read	Cmax
C[C@H](Oc1ccc(Br)cc1-c1ccon1)C(=O)O	LC-MS/MS, non-compartmental	human, plasma	200 mg once daily, day 1, multiple ascending dose, mean		9640 ng/mL
NC(CO)(CO)CCc1ccc(Sc2cccc(OCc3ccccc3)c2)cc1Cl		human male fasted, whole blood	oral, 3 mg, given alone		0.768 ng/mL
Cn1c(=O)oc2ccc(-c3ccc(C[C@@H](C#N)NC(=O)[C@@H]4CNCCCO4)cc3)cc21		human, moderate renal impairment, plasma	oral, 25 mg single dose, geometric least squares mean		183 ng/mL
